Experimental data from different studies.
Compare with care: the assays were run in different laboratories. Numbers after ± are the reported error.

SMILES | technique | matrix | tested at | time | pH | temperature | fu
CC(=O)N1CCN(c2ccc(OCC3COC(Cn4ccnc4)(c4ccc(Cl)cc4Cl)O3)cc2)CC1 (stereo not drawn) | equilibrium dialysis | pooled human plasma |  |  |  |  | 0.0163
Cc1cnc(N2CC3(CCOCC3)C2)c(C(=O)Nc2ccc(C(=O)N3CCc4cc(C(=O)Nc5c(C)cccc5F)sc4-c4ccccc43)cc2)c1 |  | mouse plasma |  |  |  |  | 0.01
CC[C@H]1OC(=O)[C@H](C)[C@@H](O[C@H]2C[C@@](C)(OC)[C@@H](O)[C@H](C)O2)[C@H](C)[C@@H](O[C@@H]2O[C@H](C)C[C@H](N(C)C)[C@H]2O)[C@](C)(O)C[C@@H](C)C(=O)[C@H](C)[C@@H](O)[C@]1(C)O | equilibrium dialysis | human plasma | 2 µM | 20 h | pH 7.4 | 37 °C | 0.285 ± 0.01
Cc1cc(C)c(CNC(=O)c2cc(Cl)c3c(c2C)O[C@@](C)([C@H]2CC[C@H](N(C)C)CC2)O3)c(=O)[nH]1 | ultracentrifugation | 0.1% human alpha-1-acid glycoprotein | 3000 ng/mL | 160 min |  |  | 0.152
OCc1nc2ccc(NCc3ccc(C(F)(F)F)cc3)cc2[nH]1 | rapid equilibrium dialysis | mouse brain homogenate | 2 µM | 4 h |  | 37 °C | 0.0454
COc1ccc(CCNCCCC(C#N)(c2ccc(OC)c(OC)c2)C(C)C)cc1OC (stereo not drawn) | equilibrium dialysis | human plasma | 2 µM | 20 h | pH 7.4 | 37 °C | 0.145 ± 0.023
Cc1nc2ccc(OCc3ccc(C(F)(F)F)cc3)cc2[nH]1 | rapid equilibrium dialysis | mouse plasma | 2 µM | 4 h |  | 37 °C | 0.27
COc1ccc2cc(CCC[18F])ccc2c1 | gel filtration | human plasma |  | 120 min |  | 37 °C | 0.223
C/C(=N\c1ccc(O)cc1)c1cc2ccccc2n1C | ultrafiltration | rat plasma | 500 ng/mL | 1 h |  | 37 °C | 0.005
